Measurements from different studies.
Each numbered part is a random draw from the data of one study; scales do not carry over between parts. Changes are numbered by the printed parent chain.

Study 1 — target: CCNE1, cyclin fold, Cln2 fusion (human); technique: yeast growth competition, sequencing; sample: yeast; notes: strong parent motif; reference: not given; direction: higher = stronger binding
Starting sequence: BRCA2 docking peptide (human); CKKRRALDFLSRL
| Substitution | normalised enrichment score |
| --- | --- |
| R4A | 0.518 |
| F9L | 1.02 |
| S11A | 1.68 |
| R5A | 1.7 |
| K3A | 1.7 |
| D8A | 1.16 |
| R12A | 2.52 |

Study 2 — technique: RNA Bind-n-Seq; form: RNA; sample: in vitro; tested at: 1 µM; notes: whole 134-nt RNA, ends assumed; with: 150 mM KCl; reference: input library; direction: higher = stronger binding
Target: Ras GTPase-activating protein-binding protein 1, C-terminal RGG region (G3BP1, Homo sapiens, UniProt Q13283)
Sequence of UniProt Q13283 (whole entry, looked up): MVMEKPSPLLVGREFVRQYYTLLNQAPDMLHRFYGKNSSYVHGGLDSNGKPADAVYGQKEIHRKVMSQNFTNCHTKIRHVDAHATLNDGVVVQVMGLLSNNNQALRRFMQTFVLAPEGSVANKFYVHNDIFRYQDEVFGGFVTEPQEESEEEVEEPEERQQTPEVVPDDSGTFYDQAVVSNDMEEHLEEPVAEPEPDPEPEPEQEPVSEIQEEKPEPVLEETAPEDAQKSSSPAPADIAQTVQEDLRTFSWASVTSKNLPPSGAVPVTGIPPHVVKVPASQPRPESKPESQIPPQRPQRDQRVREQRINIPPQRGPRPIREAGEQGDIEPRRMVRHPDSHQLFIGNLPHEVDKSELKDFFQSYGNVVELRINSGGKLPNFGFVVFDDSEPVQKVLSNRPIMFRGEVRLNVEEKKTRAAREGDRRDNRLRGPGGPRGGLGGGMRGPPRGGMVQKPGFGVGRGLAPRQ
All sequences stand within: GGGAGUUCUACAGUCCGACGAUC … UGGAAUUCUCGGGUGUCAAGG
| Oligonucleotide | log2 enrichment |
| --- | --- |
| ACCAUGCAGGUGGGCAUCUUUGGGAAGUGGGGCAAGGGGGGGAUAGAGAGGGGGGUAACACUUUGGGAACAGGUGGUCCCAGGUCGUUUC | 2.19 |
| UGGGAGGUGGAUUUUGUUUAUUUUUUUAGCUCAUUUCCAGGGGUGGGAAUUUUUUUUUGAUAUGUGUCAUGAAUAAAGUUGUUUUUGAAA | 3.33 |
| CCUCAAGUCCUGUGCUACACAUCGUAUGUACCGAAUCGGGGAGGGAGGGAGGAAAGUAUUAUGUUACGCCGUUCGGAUCUGCACUUCCAG | 1.83 |
| ACCAUGCAGGUGGGCAAAUUUGGGAAGUGGGGCAAGGGGGGGAUAGGGAGGGGGGUAACACUUUGGGAACAGGUGGUCCCAGGUCGUUUC | -1.05 |
| AGUCCUGUGCUACACAUCGUAUGUACCGAAUCGGGGUUUUUGGGGAGGGGAAAGGGGAAAGUAUUAUGUUACGCCGUUCGGAUCUGCACU | 2.58 |
| GCAGGAAGUAAAAACAAAUGGAAAUGCUUUGGAUAGUGGCAGGGGUGGGGGUUGCUAAGGAAAGGGUGGGAUGGGAGUGGGUAAAGAGUU | 1.68 |
| CAAGUCCUGUGCUACACAUCGUAUGUACCGAAUCGGGAAAGGGAGGGUUUUUGGGAAAGUAUUAUGUUACGCCGUUCGGAUCUGCACUUC | 1.8 |
| UCCUGUGCUACACAUCGUAUGUACCGAAUCGGGAAAAAAAGGGAAAGGGAAAAAAAGGGAAAGUAUUAUGUUACGCCGUUCGGAUCUGCA | -0.829 |
| UCCUGUGCUACACAUCGUAUGUACCGAAUCGGUUUUUUUGGUUUUUUUGGGUUUUUUUGGAAAGUAUUAUGUUACGCCGUUCGGAUCUGC | -0.494 |
| CACCGACAACACGCACCCACACAGACACAGAGGGAAGGGGUUGGGAUGGGGACAGGGUGCACAGCAGGGCGGGGUAGGACCCCAGCCCCU | 0.0275 |
| UCUCUUAUGCUAUUGGAGUUUCUCAUCCAUUAUCUAUCUCCAUUUUCCAUUAUGGUACCUCUCAGAAGAGUGAGAGAGAGCUAUUAGAGA | -1.51 |
| UCAAGUCCUGUGCUACACAUCGUAUGUACCGAAUCGGAGGUUUUUGGUUUUUGGAAAGUAUUAUGUUACGCCGUUCGGAUCUGCACUUCC | -1.3 |
| UCUUCCGUGACAUUUCAUUUGGGGAACAACUUUUCUCUUUACAGGCCCGAGUGACUAAGGGAUGUACCAUUGUUAAGCCUUUCAACCUGU | 0.416 |
| AAGUCCUGUGCUACACAUCGUAUGUACCGAAUCGGUUUUUUUGGAGGAAAAAAAGGAAAGUAUUAUGUUACGCCGUUCGGAUCUGCACUU | -2.13 |

Study 3 — technique: aptamer microarray, sandwich; form: DNA with 2'F-ANA; sample: in vitro; tested at: 200 nM; with: Cy3 exosite-II aptamer, 400 nM; direction: higher = stronger binding; oligonucleotide: GGTTGGTGTGGTTGG
Target: Prothrombin, mature alpha-thrombin (F2, Homo sapiens, UniProt P00734)
Notes: whole 15-mer aptamer, many near background
| Modification | mean fluorescence intensity [a.u.] |
| --- | --- |
| 2'F-ANA at 1 4 7 8 14 | 58.3 |
| 2'F-ANA at 1 3 4 6 7 10 11 13 | 53.7 |
| 2'F-ANA at 1 2 8 10 15 | 54.6 |
| 2'F-ANA at 1 3 6 7 13 14 15 | 81 |
| 2'F-ANA at 2 4 8 10 14 | 63.5 |
| 2'F-ANA at 1 4 5 9 11 12 | 90 |
| 2'F-ANA at 3 4 5 7 10 11 12 14 15 | 51.1 |
| 2'F-ANA at 2 5 6 7 12 | 155 |
| 2'F-ANA at 2 7 8 11 13 | 423 |
| 2'F-ANA at 1 5 7 10 12 | 46.5 |
| 2'F-ANA at 2 3 4 5 10 11 12 | 62.2 |
| 2'F-ANA at 1 2 5 6 8 11 13 | 193 |

Other studies, line by line
| Substance | target | test | test system | setting | how to read | measurement | value |
| --- | --- | --- | --- | --- | --- | --- | --- |
| PhoQ, residues 284 288 289 292 302 303 SASVAL | PhoP, residues 12 14 15 18 19 NQFFI (Escherichia coli, UniProt P23836) | Sort-seq, refers to: YFP reporter | E. coli | PhoQ-PhoP variant library, with: 10 µM Mg2+ | reference: high Mg2+ state, higher = stronger signaling | fold induction | 8.89 |

For quick reference, copied from above (study 1):
| Substitution | normalised enrichment score |
| --- | --- |
| R5A | 1.7 |
| K3A | 1.7 |
| S11A | 1.68 |
| R12A | 2.52 |
